Results gathered from unrelated publications.
A part holds a random share of what one study measured.

Sample 1
Substance: PhoQ, residues 284 288 289 292 302 303 SCEHLI
Method: Sort-seq
Measured: YFP reporter
Matrix: E. coli
Setting: PhoQ-PhoP variant library
With: 10 µM Mg2+
Reference: high Mg2+ state
Direction: higher = stronger signaling
target | fold induction
PhoP, residues 12 14 15 18 19 LHTVL (Escherichia coli, UniProt P23836) | 12.9
PhoP, residues 12 14 15 18 19 NQCAL (Escherichia coli, UniProt P23836) | 13.8
PhoP, residues 12 14 15 18 19 TQAML (Escherichia coli, UniProt P23836) | 16.6

Sample 2
Target: Interferon regulatory factor 5, full length, phosphomimetic (IRF5, Homo sapiens, UniProt Q13568-2, residues 1-514, S451D/S453D/S456D/S462D)
Method: protein-binding microarray
Molecule type: double-stranded DNA, one strand shown
Matrix: in vitro
Concentration: 940 nM top
Setting: 60-bp whole probe
With: salmon DNA 0.4 mg/ml
Reference: random background probes
Direction: higher = stronger binding
Constant ends, left off below: GCCTAGCAC … GTCTTGATTCGCTTGACGCTGCTG
Sequence | fitted relative affinity [z-score]
TTGGGTTTCGGTTCCGGTTAGTGCTAG | 12.8
TCATGCATCTGATTTCTCACTGTGCTA | 0.633
GACCGACTGCTTTTCCTGACGTGCTAG | 0.236
TTAGATTGCAGTATCGATTAGTGCTAG | 3.97
CTAGGTTTCGGTTCCGGTTAGTGCTAG | 13.9

Sample 3
Target: Centromere-binding protein 1, full length, N-terminal tag (CBF1, Saccharomyces cerevisiae, UniProt P17106, residues 1-351)
UniProt P17106, sequence (whole entry, looked up): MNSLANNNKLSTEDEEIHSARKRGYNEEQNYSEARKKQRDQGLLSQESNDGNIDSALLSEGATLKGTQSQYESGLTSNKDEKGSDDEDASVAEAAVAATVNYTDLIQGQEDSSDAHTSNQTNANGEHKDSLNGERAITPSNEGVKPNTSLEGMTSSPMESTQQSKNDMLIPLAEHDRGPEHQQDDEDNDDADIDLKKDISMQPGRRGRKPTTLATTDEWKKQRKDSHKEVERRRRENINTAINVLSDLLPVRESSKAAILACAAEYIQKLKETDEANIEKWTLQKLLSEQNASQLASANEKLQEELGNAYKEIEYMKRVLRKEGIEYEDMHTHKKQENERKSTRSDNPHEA
Method: protein-binding microarray
Molecule type: double-stranded DNA, one strand shown
Matrix: in vitro
Concentration: 0.8 µM
Setting: whole 60-bp probe, no competitor
Direction: higher = stronger binding
Sequence | fluorescence intensity [a.u.]
GAATTAGCGCCTCATGTGAGCAGGCCATTGTGGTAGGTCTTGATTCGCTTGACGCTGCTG | 855
GAACTAGACCCGCACGTGACCACTTCGAGAGCATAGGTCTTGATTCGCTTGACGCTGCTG | 22100
GAATCTGGATACACCCTCGTGAAGAAATAGGGTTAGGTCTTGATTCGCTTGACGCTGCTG | 640
GAAACACCGGGTTCTGATGTTATCACCTACTTTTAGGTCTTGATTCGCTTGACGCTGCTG | 500
GAAGACGTTTAGAGTGACGTGAATCACTGTTAATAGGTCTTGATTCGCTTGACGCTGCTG | 508
GAATGCATTCACTGCCATGTGCAAATAAAGGCTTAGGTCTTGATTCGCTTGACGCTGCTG | 852

Sample 4
Target: PABPC1L2, full length, GST fusion (mouse, UniProt A0ABA7IW68)
Method: RNAcompete
Molecule type: RNA
Matrix: in vitro
Concentration: 20 nM
Setting: 7-mer, probes averaged, single round
Reference: mean of 7-mers
Direction: higher = stronger binding
Target sequence (chain): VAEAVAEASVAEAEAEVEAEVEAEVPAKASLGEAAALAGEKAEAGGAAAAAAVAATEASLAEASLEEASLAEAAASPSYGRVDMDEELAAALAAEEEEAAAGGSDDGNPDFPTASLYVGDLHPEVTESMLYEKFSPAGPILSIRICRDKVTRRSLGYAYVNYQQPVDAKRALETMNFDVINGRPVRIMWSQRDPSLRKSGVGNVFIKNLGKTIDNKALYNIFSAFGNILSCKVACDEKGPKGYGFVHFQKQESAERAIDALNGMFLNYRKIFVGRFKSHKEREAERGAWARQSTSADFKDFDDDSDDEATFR
Sequence | 7-mer Z-score
CGAACAU | -0.18
CACACUC | -0.204
AAGGCUA | 0.245
CCGCACG | -0.315
GCAUAUC | -0.146
CGUACGU | -0.333
AAGUGAG | 0.227
UGUUGCA | -0.142
